Measured values from different studies.
Each line is one published result; not all experiments were run side by side.
DRD3: D(3) dopamine receptor (DRD3, Homo sapiens, UniProt P35462)
UniProt P35462, sequence (whole entry, looked up): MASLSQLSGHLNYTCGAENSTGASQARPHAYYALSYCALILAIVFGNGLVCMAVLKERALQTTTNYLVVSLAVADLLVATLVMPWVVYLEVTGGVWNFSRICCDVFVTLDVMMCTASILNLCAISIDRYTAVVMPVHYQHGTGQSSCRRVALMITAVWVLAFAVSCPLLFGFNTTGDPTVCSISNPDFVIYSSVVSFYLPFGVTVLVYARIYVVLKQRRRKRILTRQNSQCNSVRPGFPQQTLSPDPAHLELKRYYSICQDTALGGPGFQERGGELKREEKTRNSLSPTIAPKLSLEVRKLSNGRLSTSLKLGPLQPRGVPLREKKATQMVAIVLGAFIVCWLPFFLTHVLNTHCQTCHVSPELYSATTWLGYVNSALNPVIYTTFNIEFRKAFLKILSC
UniProt Q9UBN7, sequence (whole entry, looked up): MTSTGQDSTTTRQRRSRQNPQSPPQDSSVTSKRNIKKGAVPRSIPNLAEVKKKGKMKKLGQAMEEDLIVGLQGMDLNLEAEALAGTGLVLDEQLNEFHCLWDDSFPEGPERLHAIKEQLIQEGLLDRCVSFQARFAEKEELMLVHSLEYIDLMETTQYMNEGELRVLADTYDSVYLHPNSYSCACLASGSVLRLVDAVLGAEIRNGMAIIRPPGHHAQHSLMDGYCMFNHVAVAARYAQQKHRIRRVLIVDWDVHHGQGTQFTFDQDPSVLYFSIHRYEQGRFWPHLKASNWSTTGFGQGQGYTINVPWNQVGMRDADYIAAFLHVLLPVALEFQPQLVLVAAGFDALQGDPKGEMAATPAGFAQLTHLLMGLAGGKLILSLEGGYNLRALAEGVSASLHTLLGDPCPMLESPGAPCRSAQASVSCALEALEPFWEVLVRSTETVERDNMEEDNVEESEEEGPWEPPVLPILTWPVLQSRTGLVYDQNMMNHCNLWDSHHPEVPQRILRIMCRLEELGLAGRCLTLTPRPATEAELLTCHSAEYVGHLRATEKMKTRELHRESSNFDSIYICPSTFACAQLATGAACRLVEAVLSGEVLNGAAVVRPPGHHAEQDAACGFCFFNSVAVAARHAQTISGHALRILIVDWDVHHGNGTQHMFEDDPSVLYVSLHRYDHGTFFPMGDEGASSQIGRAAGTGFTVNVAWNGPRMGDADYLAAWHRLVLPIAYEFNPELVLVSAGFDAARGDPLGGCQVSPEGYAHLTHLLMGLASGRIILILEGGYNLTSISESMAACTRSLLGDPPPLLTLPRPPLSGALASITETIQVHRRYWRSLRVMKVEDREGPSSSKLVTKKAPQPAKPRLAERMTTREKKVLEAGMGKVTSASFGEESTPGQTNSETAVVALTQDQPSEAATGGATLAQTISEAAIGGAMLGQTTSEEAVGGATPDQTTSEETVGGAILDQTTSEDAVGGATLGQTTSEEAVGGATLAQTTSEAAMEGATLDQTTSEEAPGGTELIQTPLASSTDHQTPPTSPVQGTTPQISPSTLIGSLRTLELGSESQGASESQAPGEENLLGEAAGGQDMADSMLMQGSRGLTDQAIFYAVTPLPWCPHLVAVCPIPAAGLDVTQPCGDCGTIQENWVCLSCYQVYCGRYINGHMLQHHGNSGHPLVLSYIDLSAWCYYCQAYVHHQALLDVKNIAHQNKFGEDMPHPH
UniProt Q6IQ55, sequence (whole entry, looked up): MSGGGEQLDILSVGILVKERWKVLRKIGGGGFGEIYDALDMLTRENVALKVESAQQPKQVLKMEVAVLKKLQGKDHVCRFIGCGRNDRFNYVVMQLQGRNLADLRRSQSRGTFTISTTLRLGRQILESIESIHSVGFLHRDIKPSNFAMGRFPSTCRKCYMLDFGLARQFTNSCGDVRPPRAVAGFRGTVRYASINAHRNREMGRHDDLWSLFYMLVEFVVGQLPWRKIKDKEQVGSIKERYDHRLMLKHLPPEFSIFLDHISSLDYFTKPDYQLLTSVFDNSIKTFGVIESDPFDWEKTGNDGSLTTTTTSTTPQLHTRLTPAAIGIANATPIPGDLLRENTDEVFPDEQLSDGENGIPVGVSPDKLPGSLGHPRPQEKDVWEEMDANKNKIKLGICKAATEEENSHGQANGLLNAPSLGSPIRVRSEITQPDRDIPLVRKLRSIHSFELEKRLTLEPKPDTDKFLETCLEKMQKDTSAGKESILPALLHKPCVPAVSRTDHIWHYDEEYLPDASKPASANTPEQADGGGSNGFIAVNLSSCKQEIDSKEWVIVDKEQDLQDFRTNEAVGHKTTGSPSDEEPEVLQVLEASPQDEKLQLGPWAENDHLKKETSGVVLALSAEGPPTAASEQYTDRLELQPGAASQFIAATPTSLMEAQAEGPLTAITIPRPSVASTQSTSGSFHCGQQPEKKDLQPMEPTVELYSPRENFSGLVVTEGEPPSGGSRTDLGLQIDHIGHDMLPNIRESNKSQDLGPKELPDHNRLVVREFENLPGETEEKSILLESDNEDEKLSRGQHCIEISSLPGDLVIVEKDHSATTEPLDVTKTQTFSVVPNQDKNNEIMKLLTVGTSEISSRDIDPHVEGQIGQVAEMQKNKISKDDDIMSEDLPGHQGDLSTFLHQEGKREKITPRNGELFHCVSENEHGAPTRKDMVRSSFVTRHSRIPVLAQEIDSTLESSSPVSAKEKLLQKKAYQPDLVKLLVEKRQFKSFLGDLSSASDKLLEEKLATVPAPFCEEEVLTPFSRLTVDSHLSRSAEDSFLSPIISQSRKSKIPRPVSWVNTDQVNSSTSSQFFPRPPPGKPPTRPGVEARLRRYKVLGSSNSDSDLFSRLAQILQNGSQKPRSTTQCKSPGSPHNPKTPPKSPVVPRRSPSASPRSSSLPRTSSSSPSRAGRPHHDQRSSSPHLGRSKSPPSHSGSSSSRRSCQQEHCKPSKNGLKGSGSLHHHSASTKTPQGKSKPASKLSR
UniProt Q00537, sequence (whole entry, looked up): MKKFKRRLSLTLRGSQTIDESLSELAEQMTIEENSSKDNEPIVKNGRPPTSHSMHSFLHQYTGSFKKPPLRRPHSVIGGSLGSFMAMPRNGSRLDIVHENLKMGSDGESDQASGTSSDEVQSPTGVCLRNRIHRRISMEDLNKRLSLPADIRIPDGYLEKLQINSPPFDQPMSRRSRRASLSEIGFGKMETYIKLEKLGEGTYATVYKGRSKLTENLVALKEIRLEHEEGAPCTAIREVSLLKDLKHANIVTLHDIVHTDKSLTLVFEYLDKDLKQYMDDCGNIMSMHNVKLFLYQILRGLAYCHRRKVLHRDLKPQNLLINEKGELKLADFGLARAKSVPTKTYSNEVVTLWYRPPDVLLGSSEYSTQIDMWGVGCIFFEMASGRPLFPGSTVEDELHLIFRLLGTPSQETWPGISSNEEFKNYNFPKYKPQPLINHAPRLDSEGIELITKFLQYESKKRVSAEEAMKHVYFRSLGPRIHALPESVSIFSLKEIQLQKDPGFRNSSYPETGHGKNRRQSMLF
UniProt Q16620, sequence (whole entry, looked up): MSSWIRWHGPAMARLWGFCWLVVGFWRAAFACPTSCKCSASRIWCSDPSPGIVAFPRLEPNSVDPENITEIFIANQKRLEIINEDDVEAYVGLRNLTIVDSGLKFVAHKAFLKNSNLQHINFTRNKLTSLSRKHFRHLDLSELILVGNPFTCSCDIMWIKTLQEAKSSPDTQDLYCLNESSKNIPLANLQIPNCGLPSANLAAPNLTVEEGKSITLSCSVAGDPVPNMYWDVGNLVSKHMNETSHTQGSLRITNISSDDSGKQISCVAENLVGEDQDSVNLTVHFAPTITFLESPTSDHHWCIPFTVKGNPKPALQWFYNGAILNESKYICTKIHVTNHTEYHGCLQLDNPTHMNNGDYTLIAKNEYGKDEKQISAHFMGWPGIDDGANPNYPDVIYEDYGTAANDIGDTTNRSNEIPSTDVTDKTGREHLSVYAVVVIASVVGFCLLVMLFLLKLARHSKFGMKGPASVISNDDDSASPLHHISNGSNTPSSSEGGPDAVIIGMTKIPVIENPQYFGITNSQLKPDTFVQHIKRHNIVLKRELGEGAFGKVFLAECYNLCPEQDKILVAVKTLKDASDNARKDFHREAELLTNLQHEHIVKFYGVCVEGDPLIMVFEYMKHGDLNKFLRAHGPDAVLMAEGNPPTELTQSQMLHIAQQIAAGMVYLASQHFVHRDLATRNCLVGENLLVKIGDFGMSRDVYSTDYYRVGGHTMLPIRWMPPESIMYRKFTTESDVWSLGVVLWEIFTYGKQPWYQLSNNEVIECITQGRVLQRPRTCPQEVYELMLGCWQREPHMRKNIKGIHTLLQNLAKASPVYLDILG

SMILES | tested on | assay | system | conditions | endpoint | result
O=c1nc(N2CCN(CC3CCCCC3)CC2)sc2c([N+](=O)[O-])cc(C(F)(F)F)cc12 | – | – | CD-1 mouse, plasma | oral, 100 mg/kg, 2 h | concentration | 3000 ng/mL
COc1cccc(C(=O)C#Cc2ccc(F)c(F)c2)c1 | Pseudomonas aeruginosa | microbial growth, absorbance | – | 10 µM, 24 h | activity vs control | 85%
COc1cc(-c2cncc3c2CN(C)Cc2cc(N4CCNCC4)ccc2-3)cc(OC)c1OC | BDNF/NT-3 growth factors receptor (NTRK2, Homo sapiens, UniProt Q16620) | enzyme activity, inhibitor | – | 1 µM | remaining activity | 92%
CCCN(O)N=Nc1ccc(S(=O)(=O)Nc2cc(C)on2)cc1 | – | ABTS scavenging | – | 60 µg/mL | inhibition | 15.1%
Cc1cc([C@@H](C)Nc2ccccc2C(=O)O)c2nc(N3CCC(F)(F)CC3)c(C#N)c(=O)n2c1 | Ephrin type-A receptor 2 (EPHA2, Homo sapiens, UniProt P29317) | binding, competition with immobilised ligand | – | 10 µM | remaining binding | 100%
CCN(O)N=Nc1ccc(S(=O)(=O)Nc2nccs2)cc1 | – | ABTS scavenging | – | 300 µg/mL | inhibition | 57.2%
CN(Cc1ccc(C(C)(C)C)cc1)Cc1cccc2ccccc12 | Trichophyton rubrum | microbial growth, disc diffusion | ATCC28188 | 0.00025 µg/mL, 6 days | inhibition zone | 11.2 mm
S=C(Nc1ccccc1)Nc1ccc(Oc2nnc(-c3ccc(Cl)cc3)c3ccccc23)cc1 | MCF7 | cell growth or viability, MTT | – | 2.5 µM, 24 h | viability | 3.63%
O=C(NO)c1cncc(OS(=O)(=O)Oc2ccc(C(F)(F)F)cc2)c1 | Protein deacetylase HDAC6 (HDAC6, Homo sapiens, UniProt Q9UBN7) | enzyme activity, inhibitor, fluorescence | – | – | Ki | 66 nM
Fc1ccc(/C=N/N=C/c2ccc(F)cc2)cc1 | – | DPPH scavenging | – | – | IC50 | 2.15 mM
CC(=O)Nc1ccc(Oc2nnc(-c3ccc(Cl)cc3)c3ccccc23)cc1 | MCF7 | cell growth or viability, MTT | – | 0.312 µM | cell death | 84.4%
Cc1noc(NS(=O)(=O)c2ccc(N=NN(O)c3ccccc3)cc2)c1C | – | ABTS scavenging | – | 20 µg/mL | inhibition | 31.9%
O=[N+]([O-])c1cccc(/C=N/N=C/c2cccc([N+](=O)[O-])c2)c1 | – | DPPH scavenging | – | – | IC50 | > 3 mM
C=CC(=O)N1CCC(COCC(=O)N2CCN(c3nc(-c4cnc(N)nc4C(F)F)nc(N4CCOC[C@@H]4C)n3)CC2)CC1 | Cyclin-dependent kinase 17 (CDK17, Homo sapiens, UniProt Q00537) | binding, competition with immobilised ligand | – | 1 µM | remaining binding | 100%
CC(=NNC(=O)c1ccncc1)c1ccc(Nc2nnc(-c3ccc(Cl)cc3)c3ccccc23)cc1 | MCF7 | cell growth or viability, MTT | – | 10 µM | cell death | 91.2%
Cc1[nH]c(C)c(S(=O)(=O)Nc2ccc(Cl)c(Cl)c2Cl)c1C(=O)N1CCC(F)(F)C1 | DRD3 | β-arrestin recruitment, antagonist | – | – | IC50 | 0.0029 mM
CC(=NNC(=O)c1ccccc1O)c1ccc(Nc2nnc(-c3ccc(Cl)cc3)c3ccccc23)cc1 | MCF7 | cell growth or viability, MTT | – | 2.5 µM, 24 h | viability | 61.6%
Cc1ccc(N(O)N=Nc2ccc(S(=O)(=O)Nc3onc(C)c3C)cc2)cc1 | – | ABTS scavenging | – | 300 µg/mL | inhibition | 99.3%
CC(=NNC(=O)c1cccnc1)c1ccc(Nc2nnc(-c3ccc(Cl)cc3)c3ccccc23)cc1 | MCF7 | cell growth or viability, MTT | – | 5 µM | cell death | 95.2%
Cc1cc(NS(=O)(=O)c2ccc(N=NN(C)O)cc2)no1 | – | ABTS scavenging | – | 180 µg/mL | inhibition | 39.9%
CC(=NNC(=S)Nc1ccccc1)c1ccc(Nc2nnc(-c3ccc(Cl)cc3)c3ccccc23)cc1 | MCF7 | cell growth or viability, MTT | – | 2.5 µM, 24 h | viability | 12.2%
Cc1ccc(C(=O)C#Cc2ccc(F)c(F)c2)cc1 | Pseudomonas aeruginosa | microbial growth, absorbance | – | 10 µM, 24 h | activity vs control | 100%
CCCN(O)N=Nc1ccc(S(=O)(=O)Nc2nccs2)cc1 | – | ABTS scavenging | – | 240 µg/mL | inhibition | 61.3%
CCCCC(=O)Nc1ccc(-c2ccc3ncn(CCC)c(=O)c3c2)cn1 | Epidermal growth factor receptor (EGFR, Homo sapiens, UniProt P00533, G719C) | binding, competition with immobilised ligand | – | 0.5 µM | remaining binding | 100%
O=C(Nc1ccccc1)Nc1ccc(Oc2nnc(-c3ccc(Cl)cc3)c3ccccc23)cc1 | MCF7 | cell growth or viability, MTT | – | 0.312 µM | cell death | 88.7%
CN(Cc1ccc(C2(C(F)(F)F)CC2)cc1)Cc1cccc2ccccc12 | Trichophyton rubrum | microbial growth, disc diffusion | ATCC28188 | 0.008 µg/mL, 6 days | inhibition zone | 34 mm
O=C1NCCc2[nH]cc(S(=O)(=O)Nc3ccc(C(F)(F)F)c(Cl)c3)c21 | DRD3 | β-arrestin recruitment, antagonist | – | – | IC50 | 0.032 mM
CCN(O)N=Nc1ccc(S(=O)(=O)Nc2cc(C)on2)cc1 | – | ABTS scavenging | – | 180 µg/mL | inhibition | 24.8%
CNc1ncc2c(/C=C/C(=O)N3CCC(OC)CC3)nn(Cc3cccc(C(F)(F)F)c3)c2n1 | Tau-tubulin kinase 2 (TTBK2, Homo sapiens, UniProt Q6IQ55) | enzyme activity, inhibitor, radiometric | – | 1 µM | remaining activity | 105%
Fc1cccc(/C=N/N=C/c2cccc(F)c2)c1 | – | DPPH scavenging | – | – | IC50 | 1.67 mM

Some of these lines once more:
SMILES | tested on | assay | system | conditions | endpoint | result
Cc1cc(NS(=O)(=O)c2ccc(N=NN(C)O)cc2)no1 | – | ABTS scavenging | – | 180 µg/mL | inhibition | 39.9%
CC(=NNC(=S)Nc1ccccc1)c1ccc(Nc2nnc(-c3ccc(Cl)cc3)c3ccccc23)cc1 | MCF7 | cell growth or viability, MTT | – | 2.5 µM, 24 h | viability | 12.2%
